Experimental data of several laboratories.
Each numbered part is a random draw from the data of one study; scales do not carry over between parts.

Set 1
Target: Fragile X messenger ribonucleoprotein 1, C-terminal low-complexity region (Fmr1, Mus musculus, UniProt P35922)
Technique: RNA Bind-n-Seq
Form: RNA
Matrix: in vitro
Concentration: 200 nM
Setting: whole 134-nt RNA, ends assumed
Together with: 150 mM KCl
Reference: input library
Direction: higher = stronger binding
| Sequence | log2 enrichment |
| --- | --- |
| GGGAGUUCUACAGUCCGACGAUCGCAGGAAGUAAAAACGAAUGGAAAUGCUUCGGAUAGUGGCAGGGGUGGGGGUUGCUAAGGAAAGGGUGGGAUGGGAGUGGGUAAAGAGUUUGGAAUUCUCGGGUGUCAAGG | -0.021 |
| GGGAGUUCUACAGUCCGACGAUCAGUCCUGUGCUACACAUCGUAUGUACCGAAUCGGGGAAAAGGGAAAAGGAAAAGGGGAAAGUAUUAUGUUACGCCGUUCGGAUCUGCACUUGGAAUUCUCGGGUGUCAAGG | 0.474 |
| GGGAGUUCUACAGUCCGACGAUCGUCCUGUGCUACACAUCGUAUGUACCGAAUCGGGGUUUUUGGUUUUUGGGUUUUUGGGGAAAGUAUUAUGUUACGCCGUUCGGAUCUGCAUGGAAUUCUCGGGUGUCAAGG | 0.0422 |
| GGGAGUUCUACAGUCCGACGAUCUGUGCUACACAUCGUAUGUACCGAAUCGGGGUUUUUUUGGGGUUUUUUUGGGGUUUUUGGGGAAAGUAUUAUGUUACGCCGUUCGGAUCUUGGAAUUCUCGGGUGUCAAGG | 0.36 |
| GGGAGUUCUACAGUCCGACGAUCUAGAGACUUCAGAUGGAUUUUAAAAUUGAACACACUUGGGAUGGUUUUCCAGUGAAGCAUGAGCCCGUAUUUAUCAGGCUGAAUCCAGGUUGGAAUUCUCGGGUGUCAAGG | -1.16 |
| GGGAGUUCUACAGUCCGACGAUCUGGAGAUGACAGAAAUGACUGGUGUGUCGCUGAAACGUGGGGCACUGGUUGUCGAAGAUAAUGACAGUGGAGUCCCAGUUGAAGAGACAAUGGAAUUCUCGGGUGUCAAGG | -2.03 |
| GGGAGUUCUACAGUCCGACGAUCCUCAAGUCCUGUGCUACACAUCGUAUGUACCGAAUCGGGUUGGGUUGGUUGGGAAAGUAUUAUGUUACGCCGUUCGGAUCUGCACUUCCAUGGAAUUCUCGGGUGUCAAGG | 1.07 |

Set 2
Target: Interferon regulatory factor 7, full length, phosphomimetic (IRF7, Homo sapiens, UniProt Q92985, residues 1-503, S101K/S471D/S472D/S475D/S476D/S477D/S483D/S484D/S487D)
Technique: protein-binding microarray
Form: double-stranded DNA, one strand shown
Matrix: in vitro
Concentration: 250 nM
Setting: 60-bp whole probe
Together with: salmon DNA 0.4 mg/ml
Reference: random background probes
Direction: higher = stronger binding
All sequences stand within: GCCTAGCAC … GTCTTGATTCGCTTGACGCTGCTG
Construct (chain): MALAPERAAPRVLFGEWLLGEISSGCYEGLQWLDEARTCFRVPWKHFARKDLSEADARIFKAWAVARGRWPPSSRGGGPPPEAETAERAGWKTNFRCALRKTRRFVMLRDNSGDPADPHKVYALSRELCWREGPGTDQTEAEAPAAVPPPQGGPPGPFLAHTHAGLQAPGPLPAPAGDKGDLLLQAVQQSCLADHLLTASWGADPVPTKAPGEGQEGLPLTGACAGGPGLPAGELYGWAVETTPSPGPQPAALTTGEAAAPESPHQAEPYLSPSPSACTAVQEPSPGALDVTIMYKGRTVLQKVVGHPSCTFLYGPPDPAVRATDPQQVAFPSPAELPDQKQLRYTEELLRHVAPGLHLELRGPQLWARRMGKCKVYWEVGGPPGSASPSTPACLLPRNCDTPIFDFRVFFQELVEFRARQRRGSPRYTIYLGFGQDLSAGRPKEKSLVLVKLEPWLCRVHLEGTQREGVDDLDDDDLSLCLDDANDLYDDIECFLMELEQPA
| Sequence | log fluorescence [z-score] |
| --- | --- |
| TCATATGTGACCTTTTTAACTGTGCTA | -0.016 |
| GACGGTTGCGGTCTCGGGACGTGCTAG | -0.149 |
| GACGGTTCCCTTTTCCTGAGGTGCTAG | 2.56 |
| GATGGTTTCGGTTCCGGGACGTGCTAG | 13.8 |
| TCAACTTTAAATTAGACACTGTGCTAG | 0.00672 |
| TCAACTTTCTACGTCTGACTGTGCTAG | 0.336 |
| ATAGATTTCGGGTTTCGATTAGTGCTA | 8.21 |

Set 3
Target: Histone acetyltransferase KAT6A, winged helix 1, GST fusion (KAT6A, Homo sapiens, UniProt Q92794, residues 1-85)
Technique: protein binding microarray
Form: double-stranded DNA, one strand shown
Matrix: in vitro
Concentration: not given
Setting: 8-mer, flanks averaged, mean of 2 arrays, mostly near background
Reference: not given
Direction: higher = stronger binding
Construct (chain): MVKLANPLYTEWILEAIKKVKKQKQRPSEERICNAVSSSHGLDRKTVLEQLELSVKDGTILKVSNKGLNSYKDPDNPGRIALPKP
| Sequence | E-score |
| --- | --- |
| GCGATCGC | 0.352 |
| AGAAATAA | -0.217 |
| CAGTGTGC | -0.119 |
| ACCATTGA | -0.103 |
| CTCCGCTA | 0.273 |
| ACTCCGCC | 0.273 |
| TCCCTTAA | -0.0602 |
| CGTACCTA | 0.0512 |
| TGCCAAAA | -0.134 |
| GGTTCCAC | -0.0882 |

Other studies, line by line
| Molecule | target | test | system | conditions | how to read | endpoint | value |
| --- | --- | --- | --- | --- | --- | --- | --- |
| PhoQ, residues 284 288 289 292 302 303 ALASRC | PhoP, residues 12 14 15 18 19 LHHVQ (Escherichia coli, UniProt P23836) | Sort-seq, item: YFP reporter | E. coli | PhoQ-PhoP variant library, together with: 10 µM Mg2+ | reference: high Mg2+ state, higher = stronger signaling | fold induction | 2.26 |

For quick reference, copied from above (set 1):
| Sequence | log2 enrichment |
| --- | --- |
| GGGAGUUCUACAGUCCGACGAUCGUCCUGUGCUACACAUCGUAUGUACCGAAUCGGGGUUUUUGGUUUUUGGGUUUUUGGGGAAAGUAUUAUGUUACGCCGUUCGGAUCUGCAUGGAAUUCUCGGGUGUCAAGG | 0.0422 |
| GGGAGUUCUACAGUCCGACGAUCUGUGCUACACAUCGUAUGUACCGAAUCGGGGUUUUUUUGGGGUUUUUUUGGGGUUUUUGGGGAAAGUAUUAUGUUACGCCGUUCGGAUCUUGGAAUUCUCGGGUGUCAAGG | 0.36 |
| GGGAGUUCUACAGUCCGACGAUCUAGAGACUUCAGAUGGAUUUUAAAAUUGAACACACUUGGGAUGGUUUUCCAGUGAAGCAUGAGCCCGUAUUUAUCAGGCUGAAUCCAGGUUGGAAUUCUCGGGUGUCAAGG | -1.16 |
